Results from different studies.
Compare with care: the assays were run in different laboratories. Numbers after ± are the reported error.

CCCC[C@H](NC(=O)CNC(=O)CNC(=O)CN1CCN(CC(=O)O)CCN(CC(=O)O)CCN(CC(=O)O)CC1)C(=O)N[C@H]1CC(=O)NCCCC[C@@H](C(N)=O)NC(=O)[C@H](Cc2c[nH]c3ccccc23)NC(=O)[C@H](CCCNC(=N)N)NC(=O)[C@@H](Cc2ccccc2)NC(=O)[C@H](Cc2c[nH]cn2)NC1=O [gallium-67 labelled]
tissue uptake (female C57 mice, B16/F1 melanoma, skin; intravenous, 0.037 MBq, 4 h): 0.81 ± 0.22 %ID/g

CC(F)C(=O)NCCOCCOCCOCC(=O)N[C@@H](CCC(=O)NCCCC[C@@H]1NC(=O)[C@@H](Cc2ccc(O)cc2)NC(=O)[C@H](CC(=O)O)NC(=O)CNC(=O)[C@H](CCCNC(=N)N)NC1=O)C(=O)NCCCC[C@@H]1NC(=O)[C@@H](Cc2ccc(O)cc2)NC(=O)[C@H](CC(=O)O)NC(=O)CNC(=O)[C@H](CCCNC(=N)N)NC1=O (stereo partly shown) [fluorine-18 labelled]
tissue uptake (small-animal PET; female athymic nude mice, U-87 MG xenograft, kidney; intravenous, 3.7 MBq, 120 min): 2.19 ± 0.57 %ID/g

CN1C(=O)[C@@H](Cc2ccc(O)c(I)c2)NC(=O)CNC(=O)[C@H](Cc2ccc3ccccc3c2)NC(=O)[C@H](CCCNC(=N)N)NC(=O)[C@H]1CCCNC(=O)c1ccc(CNC(=O)CN2CCN(CC(=O)O)CCN(CC(=O)O)CCN(CC(=O)O)CC2)cc1 [lutetium-177 labelled]
tissue uptake (item: 177Lu radioactivity; female CB-17 SCID mice, Daudi xenograft, liver; intravenous, 0.16 nmol per mouse, 6 h): 9.59 ± 0.69 %ID/g

NC12CNCCNCC(NCc3ccc(CNC(=O)CCCC(=O)NCc4ccc(-c5nncnn5)cc4)cc3)(CNCCNC1)CNCCNC2.[64Cu+2]
tissue uptake (athymic nude mice SW1222 xenograft, heart; 1 h post injection, 24 h accumulation interval, added: huA33-TCO pretargeting): 1.81 ± 0.46 %ID/g

CC(F)C(=O)NC[C@@H]1O[C@H](C(=O)NCCCC[C@@H]2NC(=O)[C@@H](Cc3ccc(O)cc3)NC(=O)[C@H](CC(=O)O)NC(=O)CNC(=O)[C@H](CCCNC(=N)N)NC2=O)[C@H](O)[C@H](O)[C@H]1O (stereo partly shown) [fluorine-18 labelled]
tissue uptake (small-animal PET; female athymic nude mice, U-87 MG xenograft, muscle; intravenous, 3.7 MBq, 120 min): 0.07 ± 0.01 %ID/g

CCCC[C@H](NC(=O)CNC(=O)CNC(=O)CN1CCN(CC(=O)O)CCN(CC(=O)O)CC1)C(=O)N[C@H]1CC(=O)NCCCC[C@@H](C(N)=O)NC(=O)[C@H](Cc2c[nH]c3ccccc23)NC(=O)[C@H](CCCNC(=N)N)NC(=O)[C@@H](Cc2ccccc2)NC(=O)[C@H](Cc2c[nH]cn2)NC1=O [gallium-67 labelled]
tissue uptake (female C57 mice, B16/F1 melanoma, muscle; intravenous, 0.037 MBq, 0.5 h): 0.73 ± 0.26 %ID/g

N=C(N)NCCC[C@H](NC(=O)[C@@H]1CSSC[C@H](NC(=O)[C@H](Cc2ccc3ccccc3c2)NC(=O)[C@H](CCCNC(=N)N)NC(=O)[C@H](CCCNC(=N)N)NC(=S)Nc2ccc(C[C@H]3CN(CC(=O)O)CCN(CC(=O)O)CCN3CC(=O)O)cc2)C(=O)N[C@@H](Cc2ccc(O)cc2)C(=O)N[C@@H](CCCNC(N)=O)C(=O)N[C@@H](CCCCN)C(=O)N[C@H](CCCCN)C(=O)N2CCC[C@H]2C(=O)N[C@@H](Cc2ccc(O)cc2)C(=O)N[C@@H](CCCNC(=N)N)C(=O)N[C@@H](CCCNC(N)=O)C(=O)N1)C(N)=O [copper-64 labelled]
tissue uptake (PET; tumour-bearing mice, kidney; 100 µCi, 24 h): 15.6 ± 2.16 %ID/g

O=C([O-])c1cccc(CN(CCN(Cc2cn(Cc3ccccc3)nn2)Cc2cccc(C(=O)[O-])n2)Cc2cn(Cc3ccccc3)nn2)n1.[64Cu+2]
tissue uptake (healthy athymic nude mice, heart; intravenous, 15 min): 2.12 %ID/g

CC(C)[C@H](NC(=O)[C@@H]1CCCN1C(=O)[C@H](CCCNC(=N)N)NC(=O)[C@H](CS)NC(=O)[C@H](Cc1c[nH]c2ccccc12)NC(=O)[C@H](CCCNC(=N)N)NC(=O)[C@@H](Cc1ccccc1)NC(=O)[C@H](Cc1c[nH]cn1)NC(=O)[C@H](CCC(=O)O)NC(=O)[C@H](CS)NC(=O)[C@H](CS)NC(=O)COCCOCCNC(=O)[C@@H]1CC(=O)N[C@@H](CCCNC(=N)N)C(=O)NCC(=O)N[C@@H](CC(=O)O)C(=O)N[C@H](Cc2ccc(O)cc2)C(=O)N1)C(N)=O [technetium-99m labelled]
tissue uptake (nude mice, M21 melanoma xenograft, kidney; intravenous, 0.037 MBq, 2 h): 22 ± 9.89 %ID/g

CCCC[C@H](NC(=O)CN1CCC(NC(=O)CN2CCN(CC(=O)O)CCN(CC(=O)O)CCN(CC(=O)O)CC2)CC1)C(=O)N[C@H]1CC(=O)NCCCC[C@@H](C(N)=O)NC(=O)[C@H](Cc2c[nH]c3ccccc23)NC(=O)[C@H](CCCNC(=N)N)NC(=O)[C@@H](Cc2ccccc2)NC(=O)[C@H](Cc2c[nH]cn2)NC1=O [gallium-68 labelled]
tissue uptake (C57BL/6J mice male B16-F10 tumour, lungs; 1 h post injection, unblocked): 0.6 ± 0.2 %ID/g

N=C(N)NCCC[C@H](NC(=O)[C@@H]1CSSC[C@H](NC(=O)[C@H](Cc2ccc3ccccc3c2)NC(=O)[C@H](CCCNC(=N)N)NC(=O)[C@H](CCCNC(=N)N)NC(=O)CN2CCN(CC(=O)O)CCN(CC(=O)O)CCN(CC(=O)O)CC2)C(=O)N[C@@H](Cc2ccc(O)cc2)C(=O)N[C@@H](CCCNC(N)=O)C(=O)N[C@@H](CCCCN)C(=O)N[C@H](CCCCN)C(=O)N2CCC[C@H]2C(=O)N[C@@H](Cc2ccc(O)cc2)C(=O)N[C@@H](CCCNC(=N)N)C(=O)N[C@@H](CCCNC(N)=O)C(=O)N1)C(N)=O [copper-64 labelled]
tissue uptake (female athymic nude mice, CHO-CXCR4 tumour xenograft; intravenous, 50 µCi, 4 h): 4.98 ± 0.89 %ID/g

N=C(N)NCCC[C@H](NC(=O)CON=C[C@H](F)[C@@H](O)[C@H](O)[C@H](O)CO)C(=O)NCC(=O)N[C@@H](CC(=O)O)C(=O)O [fluorine-18 labelled]
tissue uptake (nude mice U-87 MG tumour, blood; intravenous, 0.5 h): 0.43 ± 0.05 %ID/g

O=C([O-])CN1CCN(CC(=O)[O-])CCN(CC(=O)[O-])CCN(CC(=O)[O-])CC1.[64Cu+2]
tissue uptake (healthy athymic nude mice, stomach; intravenous, 1 h): 0.7 %ID/g

CCCC[C@@H]1NC(=O)[C@@H](NC(=O)[C@H](CCC(=O)O)NC(=O)CNC(=O)CN2CCN(CC(=O)O)CCN(CC(=O)O)CCN(CC(=O)O)CC2)CCCCNC(=O)C[C@@H](C(N)=O)NC(=O)[C@H](C(C)C)NC(=O)[C@@H]2CCCN2C(=O)[C@H](CCCNC(=N)N)NC(=O)CNC(=O)[C@H](Cc2c[nH]c3ccccc23)NC(=O)[C@H](CCCNC(=N)N)NC(=O)[C@@H](Cc2ccccc2)NC(=O)[C@H](Cc2c[nH]cn2)NC(=O)[C@H](CCC(=O)O)NC1=O [gallium-67 labelled]
tissue uptake (C57 mice, B16/F10 lung metastases, blood; intravenous, 0.037 MBq/mouse, 4 h): 0.06 ± 0.04 %ID/g

CC(F)C(=O)NC[C@@H]1O[C@H](C(=O)N[C@@H](CCC(=O)NCCCC[C@@H]2NC(=O)[C@@H](Cc3ccc(O)cc3)NC(=O)[C@H](CC(=O)O)NC(=O)CNC(=O)[C@H](CCCNC(=N)N)NC2=O)C(=O)NCCCC[C@@H]2NC(=O)[C@@H](Cc3ccc(O)cc3)NC(=O)[C@H](CC(=O)O)NC(=O)CNC(=O)[C@H](CCCNC(=N)N)NC2=O)[C@H](O)[C@H](O)[C@H]1O (stereo partly shown) [fluorine-18 labelled]
tissue uptake (small-animal PET; female athymic nude mice, U-87 MG xenograft, muscle; intravenous, 3.7 MBq, 120 min): 0.12 ± 0.02 %ID/g

O=C([O-])CN1CCN(CC(=O)[O-])CCN(CC(=O)NC[C@H]2CC[C@H](C(=O)N[C@H](Cc3cnc4ccccc4c3)C(=O)NCCCC[C@H](NC(=O)N[C@@H](CCC(=O)O)C(=O)O)C(=O)O)CC2)CCN(CC(=O)[O-])CC1.[64Cu+2]
tissue uptake (ex vivo gamma counting; 22Rv1 tumour-bearing mice, liver; intravenous, 0.74 MBq, 24 h): 16.8 ± 3.02 %ID/g

CC(F)C(=O)NC[C@@H]1O[C@H](C(=O)NCCCC[C@@H]2NC(=O)[C@@H](Cc3ccccc3)NC(=O)[C@H](CC(=O)O)NC(=O)CNC(=O)[C@H](CCCNC(=N)N)NC2=O)[C@H](O)[C@H](O)[C@H]1O (stereo partly shown) [fluorine-18 labelled]
tissue uptake (small-animal PET; female athymic nude mice, U-87 MG xenograft, muscle; intravenous, 3.7 MBq, 60 min): 0.1 ± 0.01 %ID/g

Cc1ccc2c(=O)n(-c3ccc([18F])cc3)c(CCN3C(=O)c4cccc(OC(C)C)c4C3=O)nc2c1
tissue uptake (ICR mice, male, kidney, liver, small intestine; intravenous, 50 µCi): > 10 %ID/g

CCCC[C@H](NC(=O)CNC(=O)CNC(=O)CN1CCN(CC(=O)O)CCN(CC(=O)O)CCN(CC(=O)O)CC1)C(=O)N[C@H]1CC(=O)NCCCC[C@@H](C(N)=O)NC(=O)[C@H](Cc2c[nH]c3ccccc23)NC(=O)[C@H](CCCNC(=N)N)NC(=O)[C@@H](Cc2ccccc2)NC(=O)[C@H](Cc2c[nH]cn2)NC1=O [lead-203 labelled]
tissue uptake (C57 mice with metastatic melanoma, lung; intravenous, 0.056 MBq, 4 h): 9.27 ± 1.13 %ID/g

A few entries again:
CCCC[C@@H]1NC(=O)[C@@H](NC(=O)[C@H](CCC(=O)O)NC(=O)CNC(=O)CN2CCN(CC(=O)O)CCN(CC(=O)O)CCN(CC(=O)O)CC2)CCCCNC(=O)C[C@@H](C(N)=O)NC(=O)[C@H](C(C)C)NC(=O)[C@@H]2CCCN2C(=O)[C@H](CCCNC(=N)N)NC(=O)CNC(=O)[C@H](Cc2c[nH]c3ccccc23)NC(=O)[C@H](CCCNC(=N)N)NC(=O)[C@@H](Cc2ccccc2)NC(=O)[C@H](Cc2c[nH]cn2)NC(=O)[C@H](CCC(=O)O)NC1=O [gallium-67 labelled]
tissue uptake (C57 mice, B16/F10 lung metastases, blood; intravenous, 0.037 MBq/mouse, 4 h): 0.06 ± 0.04 %ID/g

CC(C)[C@H](NC(=O)[C@@H]1CCCN1C(=O)[C@H](CCCNC(=N)N)NC(=O)[C@H](CS)NC(=O)[C@H](Cc1c[nH]c2ccccc12)NC(=O)[C@H](CCCNC(=N)N)NC(=O)[C@@H](Cc1ccccc1)NC(=O)[C@H](Cc1c[nH]cn1)NC(=O)[C@H](CCC(=O)O)NC(=O)[C@H](CS)NC(=O)[C@H](CS)NC(=O)COCCOCCNC(=O)[C@@H]1CC(=O)N[C@@H](CCCNC(=N)N)C(=O)NCC(=O)N[C@@H](CC(=O)O)C(=O)N[C@H](Cc2ccc(O)cc2)C(=O)N1)C(N)=O [technetium-99m labelled]
tissue uptake (nude mice, M21 melanoma xenograft, kidney; intravenous, 0.037 MBq, 2 h): 22 ± 9.89 %ID/g
